{"data": "Measured values gathered from unrelated publications", "note": "Parts stem from different laboratories: compare values within a part only. Changes are numbered by the printed parent chain."}
{"data": "Series 1", "target": "ABI1, truncated, D143A, DHFR fusion (Arabidopsis thaliana)", "technique": "DHFR PCA, deep sequencing", "medium": "yeast", "setting": "methotrexate growth selection, single substitutions", "with": "(+)-ABA 0.11 µM", "reference": "wild-type fitted maximum", "reading": "higher = stronger binding", "starting sequence": "PYL1, truncated, DHFR fusion (Arabidopsis thaliana); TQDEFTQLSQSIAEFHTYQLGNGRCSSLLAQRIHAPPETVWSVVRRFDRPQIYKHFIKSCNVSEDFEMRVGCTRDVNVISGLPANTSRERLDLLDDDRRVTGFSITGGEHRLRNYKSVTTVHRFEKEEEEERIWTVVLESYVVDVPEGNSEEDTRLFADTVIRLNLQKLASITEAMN; partner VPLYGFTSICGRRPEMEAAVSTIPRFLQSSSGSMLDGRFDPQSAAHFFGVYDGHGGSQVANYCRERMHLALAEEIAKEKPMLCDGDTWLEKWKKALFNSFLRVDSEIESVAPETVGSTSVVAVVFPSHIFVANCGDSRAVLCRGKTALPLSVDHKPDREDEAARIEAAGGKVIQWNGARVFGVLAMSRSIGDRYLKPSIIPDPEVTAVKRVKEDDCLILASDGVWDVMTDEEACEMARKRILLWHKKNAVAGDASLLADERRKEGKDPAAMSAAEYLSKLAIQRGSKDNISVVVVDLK"}
{"Change": "G107A", "relative binding score": "19%"}
{"Change": "R69P", "relative binding score": "1.75%"}
{"Change": "T17C", "relative binding score": "4.49%"}
{"Change": "A13V", "relative binding score": "11%"}
{"Change": "V136M", "relative binding score": "29.1%"}
{"Change": "H122G", "relative binding score": "-0.398%"}
{"Change": "E38Y", "relative binding score": "4.18%"}
{"Change": "A30H", "relative binding score": "16.5%"}
{"Change": "I52A", "relative binding score": "42%"}
{"Change": "V78D", "relative binding score": "7.59%"}
{"Change": "V62P", "relative binding score": "-5.33%"}
{"Change": "Q7R", "relative binding score": "18.2%"}
{"Change": "L164T", "relative binding score": "26.2%"}
{"Change": "H16K", "relative binding score": "0.802%"}
{"Change": "S26T", "relative binding score": "38.4%"}
{"Change": "F47T", "relative binding score": "0.173%"}
{"Change": "L8R", "relative binding score": "-0.422%"}
{"Change": "R155L", "relative binding score": "6.24%"}
{"Change": "T86Y", "relative binding score": "33.8%"}
{"Change": "V100S", "relative binding score": "-4.55%"}
{"Change": "W134I", "relative binding score": "23.3%"}
{"Change": "E14T", "relative binding score": "8.28%"}
{"Change": "Y18C", "relative binding score": "2.93%"}
{"Change": "H110Y", "relative binding score": "13%"}
{"Change": "E64A", "relative binding score": "45.1%"}
{"data": "Series 2", "target": "Histone acetyltransferase KAT6A, both winged helices, GST fusion (KAT6A, Homo sapiens, UniProt Q92794, residues 1-181)", "technique": "protein binding microarray", "molecule type": "double-stranded DNA, one strand shown", "medium": "in vitro", "concentration": "not given", "setting": "8-mer, flanks averaged, mean of 2 arrays, mostly near background", "reference": "not given", "reading": "higher = stronger binding", "Residues (chain)": "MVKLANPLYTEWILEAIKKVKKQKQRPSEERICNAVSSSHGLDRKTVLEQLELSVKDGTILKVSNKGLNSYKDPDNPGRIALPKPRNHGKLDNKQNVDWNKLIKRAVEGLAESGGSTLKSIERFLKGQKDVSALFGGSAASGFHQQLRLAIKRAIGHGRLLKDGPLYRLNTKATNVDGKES"}
{"Strand": "CTCTCGCA", "E-score": -0.0961}
{"Strand": "AATGATCG", "E-score": 0.0288}
{"Strand": "TCACCTGA", "E-score": -0.0815}
{"Strand": "GAACCGCC", "E-score": 0.166}
{"Strand": "AAAGTAGC", "E-score": -0.136}
{"Strand": "AATACAAA", "E-score": -0.114}
{"Strand": "AAGCGAGA", "E-score": 0.0841}
{"Strand": "GATTGCGA", "E-score": 0.201}
{"Strand": "GCTACTCC", "E-score": -0.0198}
{"Strand": "AGTCGCGA", "E-score": 0.238}
{"Strand": "AACTCTAG", "E-score": -0.216}
{"Strand": "GCCCCCAC", "E-score": -0.152}
{"Strand": "CCTATTAA", "E-score": -0.192}
{"Strand": "AGATGCGA", "E-score": 0.084}
{"Strand": "CTCTCGAA", "E-score": -0.142}
{"Strand": "AGTCTATG", "E-score": -0.206}
{"Strand": "ATCACCAA", "E-score": -0.16}
{"Strand": "AATGCAAA", "E-score": -0.117}
{"Strand": "CGTCAACC", "E-score": 0.0715}
{"Strand": "ATTCAGAC", "E-score": -0.0916}
{"Strand": "GACCGACC", "E-score": 0.0413}
{"Strand": "ACGGACGC", "E-score": 0.172}
{"Strand": "AGCACAGA", "E-score": -0.142}
{"Strand": "CATGTGCC", "E-score": -0.0299}
{"data": "Series 3", "target": "CEBPE, bZIP domain (human)", "technique": "DHFR protein complementation", "medium": "yeast", "setting": "single substitutions, most at no-binding floor", "reference": "wild-type JUN-FOS pair", "reading": "higher = stronger binding", "starting sequence": "JUN, bZIP domain (human); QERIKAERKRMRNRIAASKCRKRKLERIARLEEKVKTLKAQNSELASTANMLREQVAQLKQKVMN; partner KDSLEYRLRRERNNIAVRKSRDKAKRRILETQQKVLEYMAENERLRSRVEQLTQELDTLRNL"}
{"Change": "K39N", "binding fitness [natural log]": -1.42}
{"Change": "K34V", "binding fitness [natural log]": -1.26}
{"Change": "R30H", "binding fitness [natural log]": -1.15}
{"Change": "K36T", "binding fitness [natural log]": -1.27}
{"Change": "S47D", "binding fitness [natural log]": -1.03}
{"Change": "A29M", "binding fitness [natural log]": -1.15}
{"Change": "L38F", "binding fitness [natural log]": -1.53}
{"Change": "V35F", "binding fitness [natural log]": -1.23}
{"Change": "N42S", "binding fitness [natural log]": -1.47}
{"Change": "R53T", "binding fitness [natural log]": -1.02}
{"Change": "E44I", "binding fitness [natural log]": -1.2}
{"Change": "N42W", "binding fitness [natural log]": -1.42}
{"Change": "A46T", "binding fitness [natural log]": -1.02}
{"Change": "L38C", "binding fitness [natural log]": -1.46}
{"Change": "K34A", "binding fitness [natural log]": -1.21}
{"Change": "A46P", "binding fitness [natural log]": -1.43}
{"data": "Series 4", "target": "CCNE1, cyclin fold, Cln2 fusion (human)", "technique": "yeast growth competition, sequencing", "medium": "yeast", "setting": "strong parent motif", "reference": "not given", "reading": "higher = stronger binding", "starting sequence": "PLK5 docking peptide (human); IFRKVGQRLLTQC"}
{"Change": "IFRKVGQRLATQC [L10A]", "normalised enrichment score": 0.545}
{"Change": "IFRKVGQALLTQC [R8A]", "normalised enrichment score": 1.6}
{"Change": "IFRKVGQRLLTAC [Q12A]", "normalised enrichment score": 1.62}
{"Change": "IFRKAGQRLLTQC [V5A]", "normalised enrichment score": 0.559}
{"Change": "IFRKVGQRLLTQA [C13A]", "normalised enrichment score": 0.813}
{"Change": "AFRKVGQRLLTQC [I1A]", "normalised enrichment score": 0.992}
{"Change": "IARKVGQRLLTQC [F2A]", "normalised enrichment score": 0.872}
{"data": "Series 5", "target": "RNA binding protein fox-1 homolog 2, RRM domain, GST-SBP tag (RBFOX2, Homo sapiens, UniProt O43251-10, residues 100-194)", "technique": "RNA Bind-n-Seq", "molecule type": "RNA", "medium": "in vitro", "concentration": "365 nM", "setting": "natural RNA segment, single round, ends assumed", "reference": "no-protein control", "reading": "higher = stronger binding", "Residues (chain)": "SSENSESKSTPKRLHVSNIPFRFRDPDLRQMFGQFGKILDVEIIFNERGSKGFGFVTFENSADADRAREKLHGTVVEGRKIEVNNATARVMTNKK"}
{"Strand": "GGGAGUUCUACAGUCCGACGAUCACAUGGAAACAAAUAUUUGGGAGCCUGCAUAGUCUUUAGAUGGCUGCCAAAGCACUUAAAAUCUCCUUUAAAUUCUUACCAUAUGCUUACUUUUGUACUAAGUAAGUGCUUGGAAUUCUCGGGUGCCAA", "RBNS enrichment (R)": 0.641}
{"Strand": "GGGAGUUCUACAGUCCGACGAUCAAGGAGCAUUGAGUUCUUUGGUUUUGUUUUGUUUUGUUUUUUUUUAAUCUCAACUAAAGAUAUAGUUCUGUGGUAGCCAUUGUUUUACAAUGAAAUAACUGCAACUAGAGUGGAAUUCUCGGGUGCCAA", "RBNS enrichment (R)": 0.34}
{"Strand": "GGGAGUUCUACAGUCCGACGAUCUCUCAUGCCAGCAUGCUUUCAUUUGUCAGUUGUUGUGACUGAGAGAUAAUGAAUGACACCUGAAAUGCAUAUGGUAUUUUUGGGAGAGUUAAGGUAUAAUUUGAAGGUUGUGGAAUUCUCGGGUGCCAA", "RBNS enrichment (R)": 1.6}
{"Strand": "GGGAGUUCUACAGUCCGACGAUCAUACUGAAACUUGCUGCCUAUUGGGUAUGCUGAGGCCCCACAGACUUACAGAAGAAGUGGCCCUCCAUAGACAUGUGUAGCAUCAAAACACAAAGGCCCACACUUCCUGAUGGAAUUCUCGGGUGCCAA", "RBNS enrichment (R)": 0.474}
{"Strand": "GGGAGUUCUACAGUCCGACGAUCAGGUUCAAUCUUUCAGUGGCAGGCCAGCUAAACUUUCUAUAGUUUAAUGAUUAGCUGUGGUUAUGAUCUUGAGCCCUAACAUGCCACAUUACUCAAGAUUUACACAGGCAUGGAAUUCUCGGGUGCCAA", "RBNS enrichment (R)": 0.402}
{"Strand": "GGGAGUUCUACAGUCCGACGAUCUACCCUAGUCUCACCAAUCGUGGAUCUAACUUUGCUCCUGAGACUGGACAGACUGCAGGACAAUUCCAGACACGGACAGCAGAGGGUGUGGGUGUCUGGCCACAGUGGCAUGGAAUUCUCGGGUGCCAA", "RBNS enrichment (R)": 0.597}
{"Strand": "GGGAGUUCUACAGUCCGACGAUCUUUUCUCCCACCUCAUCCUUCUUCAGCCCCACCCAGCCCCCACUCCCUAGGCUCAGGUAGCUUGUUCCUUGGGGUGGGAAGGGAGCUAGGGAAGGGUCAAAGUGUGGACAUGGAAUUCUCGGGUGCCAA", "RBNS enrichment (R)": 0.299}
{"Strand": "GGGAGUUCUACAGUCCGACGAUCAAAGCAGGAGCUCAGACUCUUAGAGCCAGCUGUGGCUUCGGACCCAAGGCCUGACCUAGGCUGCUAUCCUAAUAUUGCAGGAGGGGCCUCUCUUCCAAGCCCCACCCUAAUGGAAUUCUCGGGUGCCAA", "RBNS enrichment (R)": 0.409}
{"Strand": "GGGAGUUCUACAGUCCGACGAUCGCCAUACAGCCGAGCUGGUAUUUUGACCCGCAGCAGCUCGGGCCUAAAUGGAAAUUGAAGACGUAAAGAAGAGCUUUCUUUUCCAAGAGACUCUGGUCUUGGCUAUGCUGUGGAAUUCUCGGGUGCCAA", "RBNS enrichment (R)": 0.719}
{"Strand": "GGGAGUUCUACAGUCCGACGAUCGGAAAUUGUAACAGUUAAUUACUUUGAAUGUUGCUAAAAGGACAUUUUGUGUAGGGUCAAGUUAUUUUUAUAUGAGUUAAUGUGAAAUUGUAAAUGGAAAUUUUUCCUUAUGGAAUUCUCGGGUGCCAA", "RBNS enrichment (R)": 1.62}
{"Strand": "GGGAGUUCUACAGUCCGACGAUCUCUGGACCUAAUUGGGCAUUGGGCUUUAGUGAGACCACAGACCAGGCCCGUCUCUCCUGUAGGCUUUUAAUUCAAUGGCAACUCUAUUUCAAAGAAUAAAAGCCUUUGGAUGGAAUUCUCGGGUGCCAA", "RBNS enrichment (R)": 0.328}
{"Strand": "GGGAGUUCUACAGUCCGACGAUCAGUGGAAUAACCAAGUCAAAAACCAUGUCAAAACUAUCCUCUGGGGGGUGCUGAGGGUGCUAUGGAGACCCACAAAUAAACAAUUACUCCUCCACUGAAUUGCUAAACACUGGAAUUCUCGGGUGCCAA", "RBNS enrichment (R)": 0.411}
